Published values gathered from unrelated publications.
Compare with care: the assays were run in different laboratories.

| Substance | target or system | test | test system | conditions | scale | endpoint | result |
| --- | --- | --- | --- | --- | --- | --- | --- |
| Nc1ncnc2c([C@@H]3N[C@H](CO)[C@@H](O)[C@H]3O)c[nH]c12 | Zaire ebolavirus | antibody staining | human macrophages | 50 µM | – | antigen-positive cells | 8.34% |
| CC[C@H](C)[C@H](NC(=O)[C@H](CC(C)C)NC(=O)[C@H](Cc1c[nH]c2ccccc12)NC(=O)[C@H](CCC(N)=O)NC(=O)[C@@H](NC(=O)[C@H](Cc1ccccc1)NC(=O)[C@H](C)NC(=O)[C@H](CCCCNC(=O)COCCOCCNC(=O)COCCOCCNC(=O)CC[C@H](NC(=O)CCCCCCCCCCCCCCCCCCC(=O)O)C(=O)O)NC(=O)[C@H](CCC(N)=O)NC(=O)[C@H](C)NC(=O)[C@@H](NC(=O)[C@H](CCCCN)NC(=O)[C@H](CC(=O)O)NC(=O)[C@H](CC(C)C)NC(=O)C(C)(C)NC(=O)[C@@H](NC(=O)[C@H](CO)NC(=O)[C@H](Cc1ccc(O)cc1)NC(=O)[C@H](CC(=O)O)NC(=O)[C@H](CO)NC(=O)[C@@H](NC(=O)[C@H](Cc1ccccc1)NC(=O)[C@@H](NC(=O)CNC(=O)[C@H](CCC(=O)O)NC(=O)C(C)(C)NC(=O)[C@@H](N)Cc1ccc(O)cc1)[C@@H](C)O)[C@@H](C)O)[C@@H](C)CC)[C@@H](C)CC)C(C)C)C(=O)N[C@@H](C)C(=O)NCC(=O)NCC(=O)N1CCC[C@H]1C(=O)N[C@@H](CO)C(=O)N[C@@H](CO)C(=O)NCC(=O)N[C@@H](C)C(=O)N1CCC[C@H]1C(=O)N1CCC[C@H]1C(=O)N1CCC[C@H]1C(=O)N[C@@H](CO)C(N)=O | – | – | healthy subjects, single ascending dose | 0.25 mg | – | adverse events (puncture site bruise) | 0% |
| GEVFNATRF | – | AIM | peptide, CD8+ T cells from PBMC, human donors | HLA-B*40:01 restricted, unit not given | relative to: positive over tested donors | frequency of responding donors | 20 |
| CC(=O)N[C@@H](CC(C)C)C(=O)N[C@@H](CC(C)C)C(=O)N[C@H](C=O)CCCN=C(N)N.CC(=O)N[C@@H](CC(C)C)C(=O)N[C@@H](CC(C)C)C(=O)N[C@H](C=O)CCCN=C(N)N.O=S(=O)(O)O | Replicase polyprotein 1ab, main protease (rep, Severe acute respiratory syndrome coronavirus 2, UniProt P0DTD1) | reporter gene (mKate2), inhibitor | – | 20 µM | – | inhibition | -0.884% |
| ELHLSWEVGKPRPPL | human CD4 T cells | AIM | peptide | – | – | responding donors | 8% |
| Cn1cnc(Cn2c(=O)[nH]/c(=N\c3cc4cn(C)nc4cc3Cl)n(Cc3cc(F)c(F)cc3F)c2=O)n1 | – | – | human, severe renal impairment, plasma | oral, 375 mg single dose | – | AUC(0-inf) | 1600 µg·h/mL |
